Experimental data gathered from unrelated publications.
Lines come from different studies, so protocols differ. ± marks the error that the study gave.

Structure (SMILES)	cell line	test	conditions	IC50
Cc1ccc2oc(-c3c4c(N)n[nH]c(=O)c4nn3-c3ccc(NC(=O)/C=C/CN4CCOCC4)cc3)c(C)c2c1	SNU-16	cell growth or viability		0.0757 µM
CC(C)c1cccc(C(C)C)c1-n1c(Cl)c(Cl)n(-c2c(C(C)C)cccc2C(C)C)c1=[Se].[Cl][Ag]	LoVo MDR	MTT	72 h	1.5 ± 0.3 µM
C=CCc1cc(OC)c(OC(C)=O)c(OC)c1	RT-112	MTT	24 h	> 50 µM
C=C1C(=O)OC2C1CCC1(C)CC1CCC1(C)OC21 (stereo not drawn)	TEX	cell growth, inhibitor, Alamar blue	48 h	3.8 ± 0.2 µM
OCCCCCCCCOCCCc1cccnc1	WI26VA4	cell growth or viability, MTT	48 h	168 µM
O=C1NCC(Cc2ccccc2)N(CC2CCCN2CC(CC2CCCCC2)N2CC(Cc3ccc(O)cc3)N(CCc3ccccc3)C(=O)C2=O)C1=O (stereo not drawn)	BJ skin fibroblasts	viability	72 h	> 100 µM
Cn1cc(-c2cc(N3CCCCS3(=O)=O)ccc2N[C@H]2CC[C@H](C)CC2)c2cc[nH]c2c1=O (stereo in doubt)	Light2 cells transfected with GLI1	GLI-luciferase reporter, inhibitor, refers to: GLI1		0.0003 µM
C[C@@H]1NC(=O)[C@H](CCC(=O)O)NC(=O)[C@@H](Cc2ccccc2)NC(=O)[C@H](CCC(=O)O)NC(=O)[C@H](CC(N)=O)NC1=O	WM-115	WM-115 cell adhesion, inhibitor	1 h, added: immobilized CagL RGA mutant	43 to 340 µM
Cc1c(C(=O)/C=C/c2ccco2)nnn1-c1c(Cl)cc(Cl)cc1Cl	THLE-2	cell growth or viability, MTT		42.3 µM
[Cl][Pd-]1([Cl])[S]C(Nc2ccccc2)=N[N+]1=Cc1cccs1	CRFK	cell growth or viability		91.9 µM
COc1ccc(-c2cn(C)c3ncnc(N)c23)cc1	SNU-16	cell growth or viability, ATP luminescence	96 h	> 10 µM
CC(=O)c1cnc(N)nc1N1CC[C@H]1c1nn2ccc(Cl)c2c(=O)n1-c1ccccc1	human CD4 T cells	cell proliferation	added: anti-CD3/anti-CD28	0.12 µM
O=C(N=P12CN3CN(CN(C3)C1)C2)c1cccc[c]1[Pd][Br].O=S(=O)([O-])c1cccc(P(c2cccc(S(=O)(=O)[O-])c2)c2cccc(S(=O)(=O)[O-])c2)c1.[Na+].[Na+].[Na+]	human PBMC	cytotoxicity, MTT	24 h, 1% DMSO	> 500 µM
O=C1c2ccc3c4cccc5cccc(c6ccc(c2c36)C(=O)N1CCN1CCCCC1)c54	human PBMC	cell growth or viability, SRB	72 h	280 µM
CCCCCCN(CCCCCC)C1=[S+][Au-2]2([S]1)[c]1ccccc1-c1cccc[n+]12.F[P-](F)(F)(F)(F)F (stereo not drawn)	BT-333 glioblastoma	MTT	72 h	1.38 ± 0.03 µM
C=CC(OC(C)=O)c1ccc(OC(C)=O)c(OC)c1 (stereo not drawn)	EJ-28	cell growth or viability, MTT	24 h	4.2 µM
S=c1n(-c2ccccc2)c2c3ccccc3nc3[n+]2[n]1[Ir-3]12([S]3)([c]3cccc4ccc5ccc[n+]1c5c34)[c]1cccc3ccc4ccc[n+]2c4c13	MRC9	cell viability, MTT	irradiation 450 nm, 15.5 mW/cm^2, 15 min	> 50 µM
O=[N+]([O-])c1ccc(NC2=N[N+](=Cc3cccs3)[Pt-]([Cl])([Cl])[S]2)cc1	CEM human lymphocytes	cell proliferation		26 µM
Cc1cc(/C=C/C#N)cc(C)c1Oc1cc(Nc2ccc(C#N)cn2)nc2ccncc12	MOLT-3		48 h	> 120 µM
Clc1ccc(C=[N+]2N=C(Nc3ccccc3)[S][Pd-]2([Cl])[Cl])s1	CRFK	cell growth or viability		> 100 µM
C=C1C(=O)[C@@]23CC[C@@H]4[C@](C)(COC(C)=O)CCC[C@@]4(C)[C@@H]2[C@@H](O)C[C@@H]1C3 (single isomer, unassigned)	786-0	cell growth or viability, MTT		8 µM
CCCCCCCCC=CCCCCCCCC(=O)OCC1OC(n2ccc(N)nc2=O)C(F)(F)C1O (stereo not drawn)	MOLT-4/C8	cell growth	added: NBMPR 100 µM	0.12 ± 0.05 µM
CC1=C2[O][Ru-]([Cl])[O+]=C2C=CN1CCCCCCN1C=CC2=[O+][Ru-]([Cl])[O]C2=C1C.Cc1ccc(C(C)C)cc1.Cc1ccc(C(C)C)cc1	DAN-G	cell growth or viability, crystal violet	96 h	> 20 µM
Cc1cc(NC(=O)c2cccc(N)c2)ccc1Nc1nccc(-c2cccnc2)n1	SH-SY5Y MKK7-ACT	c-Jun phosphorylation, inhibitor, western blot, refers to: phospho-c-Jun Ser73	6 h, added: doxycycline	8.97 ± 2.68 µM
CCCCOc1nc(N)c2[nH]c(=O)n(CCCN(CCCN3CCOCC3)Cc3cccc(CC(=O)O)c3)c2n1	human PBMC	IL-5 release	2 d, added: PHA	3.16 µM
COc1cccc(Cc2cc(CCC(=O)NCCNc3cccc4c(S(=O)(=O)O)cccc34)nn(CC(=O)Nc3ccc(Br)cc3)c2=O)c1	human neutrophils	calcium flux, antagonist	10 min preincubation, added: fMLF 5 nM	0.00016 ± 4.3e-05 µM

Structure (SMILES)	cell line	test	conditions	IC50
CC1CC(=O)N(CCCCN)N=C1c1ccc(NC(=O)N2Cc3ccncc3C2)cc1 (stereo not drawn)	A549-C4.4a	cell viability, CellTiter-Glo		0.063 µM
C=C(C)C(=O)Nc1ccc(-c2c(-c3ccc(Oc4nccc(C)n4)cc3)c3c(N)ncnc3n2C)cc1	SNU-16	inhibitor, HTRF, refers to: ERK phospho-Tyr202/204	2 h	0.004 µM
[Cl][Pd-2]1([Cl])[N+](=P(c2ccccc2)(c2ccccc2)C2C=CC=C2)Cc2cccc[n+]21.[Cl][Pd-2]1([Cl])[N+](=P(c2ccccc2)(c2ccccc2)C2C=CC=C2)Cc2cccc[n+]21.[Fe+2]	A2780cisR (cisplatin-resistant)	cell growth, MTT	74 h, 1% DMSO	1.8 ± 0.7 µM
COc1ccc(/C=C/C2=[N+]3C(=C(CO)c4c(C)cc(/C=C/c5ccc(OC)cc5)n4[B-]3(F)F)C(C)=C2)cc1	RPE-1	phototoxicity, resazurin	added: 645 nm light, 9.00 J/cm2	0.2 ± 0.2 µM
CC1(C)C=Cc2c(O)cc(/C=C/c3ccc(O)cc3O)cc2O1	SAS	cell growth or viability, MTT	72 h	22 µM
CC(C)c1cccc(C(C)C)c1N1CCN(c2c(C(C)C)cccc2C(C)C)C1=[Se].[Cl][Au]	LoVo MDR	MTT	72 h	4.2 ± 0.8 µM
S=c1n(-c2ccccc2)c2c3ccccc3nc3[n+]2[n]1[Ir-3]12([S]3)([c]3ccc4ccccc4c3-c3sc4ccccc4[n+]31)[c]1ccc3ccccc3c1-c1sc3ccccc3[n+]12	MRC9	cell viability, MTT	irradiation 450 nm, 15.5 mW/cm^2, 15 min	> 25 µM
CCn1nc2c(c1Nc1nc(-c3ccc(-n4cnc(C)c4)c(OC)n3)cs1)CCCC2	CHO APPwt/PS1 M146L	Aβ40 production		0.103 ± 0.004 µM
Oc1ccc(-c2csc(Cc3ccccc3)n2)c(O)c1	HEK293T	cell growth, PrestoBlue	72 h	49.9 µM
C1=CCC=C1.[Cl][Au-]1([Cl])[N+](=P(c2ccccc2)(c2ccccc2)[c-]2cccc2)Cc2cccc[n+]21.[Fe+2].[O-][Cl+3]([O-])([O-])[O-]	A2780cisR (cisplatin-resistant)	cell growth, MTT	74 h, 1% DMSO	25.2 ± 4.3 µM
C=C[C@H](OC(C)=O)c1ccc(OC(C)=O)cc1	EJ-28	cell growth or viability, MTT	24 h	8.2 µM
Cc1cc(C)c(-n2c3c([n+](-c4c(C)cc(C)cc4C)[c]2[Cu-][Cl])-c2cccc4cccc-3c24)c(C)c1	C13 cisplatin-resistant	cell viability, MTT	72 h	4 ± 1 µM
COC(=O)[C@@]1(C)C=C(C(=O)Nc2cccc(C(=O)Nc3ccc(Nc4nccc(-c5cccnc5)n4)c(C)c3)c2)C(=O)CC1	SH-SY5Y MKK7-ACT	c-Jun phosphorylation, inhibitor, western blot, refers to: phospho-c-Jun Ser73	6 h, added: doxycycline	0.66 ± 0.1 µM
O=C(Cc1ccc2ccccc2c1)N[C@H](Cc1ccccc1)C(=O)N[C@H](Cc1ccc(OP(=O)(O)O)cc1)C(=O)N[C@H](Cc1ccccc1)C(=O)N[C@H](Cc1ccc(OP(=O)(O)O)cc1)C(=O)O	A2780cis	cell growth or viability, MTT		> 483 µg/mL
O=C(c1cc(Cc2n[nH]c(=O)c3ccccc23)ccc1F)N1CCN(C(=O)C2CC2)CC1	U87	cell viability, MTT	168 h	27.7 ± 1.3 µM
Cc1c2ccccc2n2c1c(-c1ccccc1)c(S(=O)(=O)c1ccccc1)c1ccccc12	LS174T	cell growth or viability, MTT	72 h	> 100 µM
CC(=O)Oc1ccccc1C(=O)[O][Pt]([NH2])([NH2])([Cl])([Cl])[O]C(=O)CCCc1ccccc1	C13 cisplatin-resistant	cytotoxicity, MTT	72 h	0.43 ± 0.12 µM
CC(=O)[O-].O.[Cu+2].[O-]c1ccc(Br)cc1C=NCCN1CCOCC1	NHDF normal fibroblasts	cell viability, MTT	72 h	58.4 µg/mL
COc1ccc(NC(=O)N/N=C2\CC3(CCN(C)CC3)Oc3ccccc32)cc1	MCF7, HCT-116, PC-3	cell growth, MTT	range over cell lines	1.15 to 10.1 µM
Cc1c(C)c(C)[c-](C)c1C.Fc1cccnc1-c1[c-]cccc1.[Cl-].[Ir+3]	A2780 cells	cell growth, SRB	24 h exposure, 72 h recovery	> 50 µM
CN1CCCNC(=O)c2cccc(c2)C(=O)NCCCN(C)CCCNc2cccc3c2C(=O)c2cccc(c2C3=O)NCCC1	cancer cell lines	cell proliferation	general range	< 1 µM
Cc1c(C)c(C)[c-](C)c1C.Cc1ccc(-c2[c-]cccc2)nc1.[Cl-].[Ir+3]	A2780 cells	cell growth, SRB	24 h exposure, 72 h recovery	1.26 ± 0.01 µM
CCn1[c]([Au-]([Cl])([Cl])[Cl])[n+](CC)c2ccc(C(=O)OC)cc21	RC-124 kidney epithelial	cell proliferation, crystal violet staining	96 h	6.4 ± 1.9 µM
COc1ccc(/C=C/C2=[N+]3C(=C(CO)c4c(C)cc(/C=C/c5ccc(OC)cc5)n4[B-]3(F)F)C(C)=C2C=O)cc1	RPE-1	cell growth or viability, resazurin	dark	> 100 µM
NS(=O)(=O)c1ccc(NC(=O)NN[C@@H]2O[C@H](CO)[C@@H](O)[C@H](O)[C@@H]2O)cc1	HCEC	cell growth or viability, MTT	96 h	> 100 µM

Some of these lines once more:
Structure (SMILES)	cell line	test	conditions	IC50
Cc1cc(/C=C/C#N)cc(C)c1Oc1cc(Nc2ccc(C#N)cn2)nc2ccncc12	MOLT-3		48 h	> 120 µM
CCn1nc2c(c1Nc1nc(-c3ccc(-n4cnc(C)c4)c(OC)n3)cs1)CCCC2	CHO APPwt/PS1 M146L	Aβ40 production		0.103 ± 0.004 µM
COc1ccc(/C=C/C2=[N+]3C(=C(CO)c4c(C)cc(/C=C/c5ccc(OC)cc5)n4[B-]3(F)F)C(C)=C2C=O)cc1	RPE-1	cell growth or viability, resazurin	dark	> 100 µM
COc1ccc(/C=C/C2=[N+]3C(=C(CO)c4c(C)cc(/C=C/c5ccc(OC)cc5)n4[B-]3(F)F)C(C)=C2)cc1	RPE-1	phototoxicity, resazurin	added: 645 nm light, 9.00 J/cm2	0.2 ± 0.2 µM
NS(=O)(=O)c1ccc(NC(=O)NN[C@@H]2O[C@H](CO)[C@@H](O)[C@H](O)[C@@H]2O)cc1	HCEC	cell growth or viability, MTT	96 h	> 100 µM
COc1ccc(-c2cn(C)c3ncnc(N)c23)cc1	SNU-16	cell growth or viability, ATP luminescence	96 h	> 10 µM
